{"data": "Measured values of several laboratories", "note": "± marks the error that the study gave."}
{"Structure (SMILES)": "CCCC1CCC(c2ccc(OCC)c(F)c2F)CC1 (centres unmarked)", "system": "rat, fetus", "conditions": "5000 ng/mL in perfusate, high dose, mixture of 21 LCMs", "endpoint": "fetal accumulation", "value": "1.35 ± 0.85 ng/g"}
{"Structure (SMILES)": "CC(=O)N[C@@H](CC(N)=O)C(=O)N[C@@H](CCCNC(=N)N)C(=O)N[C@@H](CC(C)C)C(=O)N[C@H]1CSSC[C@@H](C(=O)N[C@H](C(N)=O)[C@@H](C)O)NC(=O)[C@H](CCCNC(=N)N)NC(=O)[C@H](Cc2c[nH]cn2)NC(=O)[C@H](C)NC(=O)CNC(=O)[C@H](Cc2c[nH]c3ccccc23)NC(=O)[C@H](CC(=O)O)NC(=O)[C@H](CCC(N)=O)NC(=O)[C@H](Cc2c[nH]c3ccccc23)NC(=O)[C@H](C(C)C)NC1=O", "test": "isocratic RP-HPLC, C18", "system": "32% acetonitrile, phosphate pH 7.4, 1% TFA", "conditions": "25 °C", "endpoint": "retention factor", "value": "0.541 ± 0.011"}
{"Structure (SMILES)": "O=C(N[C@H](Cc1c[nH]c2ccccc12)C(=O)Nc1ccncc1)c1ccc(-c2ccc(F)c(Cl)c2)cc1F", "system": "Swiss Webster mouse, female, lung", "conditions": "oral, 50 mg/kg, 2 h, 20% Kolliphor vehicle", "endpoint": "concentration", "value": "30.8 µM"}
{"Structure (SMILES)": "CN[C@@H](C)C(=O)N[C@H]1CN(S(=O)(=O)c2cccc(S(=O)(=O)N3CC[C@H]4CC[C@@H](C(=O)NC(c5ccccc5)c5ccccc5)N4C(=O)[C@@H](NC(=O)[C@H](C)NC)C3)c2)CC[C@H]2CC[C@@H](C(=O)NC(c3ccccc3)c3ccccc3)N2C1=O", "test": "LC-MS/MS, noncompartmental", "system": "human, plasma", "conditions": "30 mg, cycle 1 day 1", "endpoint": "median Tmax", "value": "31.2 min"}
{"Structure (SMILES)": "Cl.[2H]C([2H])([2H])CC(=O)c1cnc(NC(=O)C2CC2)cc1Nc1cccc(-c2ncn(C([2H])([2H])[2H])n2)c1OC", "test": "geometric mean", "system": "human", "conditions": "oral, 20 mg twice daily, day 1, fed, liquid, multiple dose", "endpoint": "Cmax", "value": "125 ng/mL"}
{"Structure (SMILES)": "O=C(O)CCC(=O)O.[2H]C([2H])([2H])Oc1cc(C)c2[nH]ccc2c1CN1CC[C@@H](C2CC2)C[C@H]1c1ccc(C(=O)O)cc1", "test": "multiple ascending dose", "system": "healthy Chinese subjects", "conditions": "50 mg twice daily", "endpoint": "subjects with papular urticaria TEAE", "value": "0%"}
{"Structure (SMILES)": "COc1ccc(NC(=O)c2cnc(N3CCN(c4ccccn4)CC3)nc2N)cc1", "system": "male rhesus monkey, venous plasma", "conditions": "intravenous, 105 MBq, 30 min", "endpoint": "parent fraction", "value": "12%"}
{"Structure (SMILES)": "Cn1cncc1-c1c(F)cncc1NC(=O)c1c(N)nn2cc(F)cnc12", "test": "population PK model", "system": "patients with solid tumours, plasma", "conditions": "oral", "endpoint": "Vc/F", "value": "30 L"}
{"Structure (SMILES)": "CC[C@H](C)CCCCC(=O)N[C@@H](CCN)C(=O)N[C@H](C(=O)N[C@@H](CCN)C(=O)N[C@H]1CCNC(=O)[C@H]([C@@H](C)O)NC(=O)[C@H](CCN)NC(=O)[C@H](CCN)NC(=O)[C@H](CC(C)C)NC(=O)[C@@H](Cc2ccccc2)NC(=O)[C@H](CCN)NC1=O)[C@@H](C)O", "system": "human, normal renal function, urine", "conditions": "intravenous, 0.75 mg/kg, 0-6 h, arithmetic mean", "endpoint": "urinary excretion", "value": "1.67%"}
{"Structure (SMILES)": "COc1ccnc(C(=O)N[C@@H](CO)C(=O)O[C@@H](C)[C@H](O)[C@@H](Cc2ccccc2)C(=O)O)c1O", "system": "lactating goat, female, kidney", "conditions": "oral, 21.3 mg/kg bw/day, 5 days", "endpoint": "share of TRR", "value": "16.8 to 32.7%"}
{"Structure (SMILES)": "O=C(Nc1cnccc1Cl)N1CCN(Cc2ccc3c(c2)OC(F)(F)O3)CC1", "system": "elderly men and women, plasma", "conditions": "oral, 100 mg once daily, day 1", "endpoint": "AUC(0-24)", "value": "6130 ng·h/mL"}
{"Structure (SMILES)": "O=C(O)c1cc(O)c2c(c1)C(=O)c1cccc(O)c1C2=O", "tested on": "HK-2 co-cultured with HepaRG", "test": "MTT", "conditions": "133.33 µM, 48 h", "scale": "baseline: untreated control", "endpoint": "viability", "value": "43 ± 5.03%"}
{"Structure (SMILES)": "C=CCN1CC(=O)N2[C@@H](Cc3ccc(O)cc3F)C(=O)N(Cc3cccc(N4CC(N5CCN(CC)CC5)C4)n3)C[C@@H]2N1C(=O)NCc1ccccc1", "system": "advanced solid tumour patients", "conditions": "oral, 10 mg twice daily, grade ≥3, dose-escalation", "endpoint": "treatment-related vomiting", "value": "0%"}
{"Structure (SMILES)": "CCn1c2ccccc2c2cc(-n3nncc3-c3ccccc3)ccc21", "test": "item: ALP, ALT, AST, albumin, bilirubin", "system": "BALB/c mice, serum", "conditions": "dose not given, 4 weeks", "endpoint": "liver enzymes and blood counts", "value": "no effect"}
{"Structure (SMILES)": "O=C(NCCCNc1nc(Nc2cccc(NC(=O)N3CCCC3)c2)ncc1Br)C1CCC1", "test": "PAMPA", "system": "PBS", "conditions": "5 h, pH 7.4", "endpoint": "effective permeability", "value": "8.85e-07 cm/s"}
{"Structure (SMILES)": "CO[C@H]1C[C@@H]2CC[C@@H](C)[C@@](O)(O2)C(=O)C(=O)N2CCCC[C@H]2C(=O)O[C@H]([C@H](C)C[C@@H]2CC[C@@H](OC(=O)NCCOCCOCCOCCOCCOCCOCCOCCOCCC(=O)N3CCc4cc(Cn5nc(-c6ccc7oc(N)nc7c6)c6c(N)ncnc65)ccc4C3)[C@H](OC)C2)C[C@@H](O)[C@H](C)/C=C(\\C)[C@@H](O)[C@@H](OC)C(=O)[C@H](C)C[C@H](C)/C=C/C=C/C=C/1C", "system": "human, plasma", "conditions": "intravenous, 8 mg, cycle 1", "scale": "baseline: day 15 over day 1", "endpoint": "AUClast ratio", "value": 2.6}
{"Structure (SMILES)": "CCC(C)n1ncn(-c2ccc(N3CCN(c4ccc(OCC5COC(Cn6cncn6)(c6ccc(Cl)cc6Cl)O5)cc4)CC3)cc2)c1=O (centres unmarked)", "test": "item: oropharyngeal pain", "system": "healthy human participants", "conditions": "oral, 200 mg, compound alone cohort", "endpoint": "adverse event incidence", "value": "0%"}
{"Structure (SMILES)": "COc1cc2c(c(O)c1OC)C(=O)c1c(cc(C)c(O[C@@H]3O[C@H](CO)[C@@H](O)[C@H](O)[C@H]3O)c1OC)C2=O", "tested on": "HK-2 co-cultured with HepaRG", "test": "MTT", "conditions": "266.67 µM, 48 h", "scale": "baseline: untreated control", "endpoint": "cell viability", "value": "66.3 ± 11.6%"}
{"Structure (SMILES)": "N[C@@H]1c2ccccc2OC12CCN(c1cnc3c(N4CCCc5ncccc54)n[nH]c3n1)CC2", "system": "patients advanced solid tumours, plasma", "conditions": "oral, 150 mg once daily, cycle 1 day 15", "endpoint": "effective half-life", "value": "4.38 days"}
{"Structure (SMILES)": "O=C(Nc1nc2cccc(-c3ccc(CN4CCS(=O)(=O)CC4)cc3)n2n1)C1CC1", "system": "rheumatoid arthritis patients", "conditions": "oral, 100 mg twice daily, 4 weeks, regardless of relatedness", "endpoint": "patients with lipase increased", "value": "8.3%"}
